Measurements collected from several papers.
Protocols differ between the studies behind these lines. Values joined by “and” are separate records of one study, mostly repeats; a detail may differ. Numbers after ± are the reported error.

Compound | assay | test system | setting | Tmax
O=C(O)c1cc(O)c(O)c(O)c1 | – | rat, plasma | oral, 1000 mg/kg extract, possible metabolite or extract component | 1.19 ± 0.23 h
N#CC(Cc1ccc(O)cc1)c1ccc(O)cc1 (stereo not shown) | item: total aglycone | rat, Long-Evans, female, serum | subcutaneous, 2 mg/kg single dose | 0.5 h
CC[C@H](C)[C@H](NC(=O)[C@@H]1CCCN1C(=O)CNC(=O)[C@H](Cc1ccccc1)NC(=O)[C@H](CC(N)=O)NC(=O)[C@H](CC(N)=O)NC(=O)[C@H](CO)NC(=O)[C@H](CO)NC(=O)[C@H](Cc1c[nH]cn1)NC(=O)[C@@H](NC(=O)[C@H](CC(C)C)NC(=O)[C@H](Cc1ccccc1)NC(=O)[C@H](CC(N)=O)NC(=O)[C@H](C)NC(=O)[C@H](CC(C)C)NC(=O)[C@H](CCCNC(=N)N)NC(=O)[C@H](CCC(N)=O)NC(=O)[C@@H](NC(=O)[C@H](C)NC(=O)[C@@H]1CSSC[C@H](NC(=O)[C@@H](N)CCCCN)C(=O)N[C@@H](CC(N)=O)C(=O)N[C@@H]([C@@H](C)O)C(=O)N[C@@H](C)C(=O)N[C@@H]([C@@H](C)O)C(=O)N1)[C@@H](C)O)C(C)C)C(=O)N[C@@H](CC(C)C)C(=O)N1CCC[C@H]1C(=O)N1CCC[C@H]1C(=O)N[C@H](C(=O)N[C@@H](CC(N)=O)C(=O)N[C@H](C(=O)NCC(=O)N[C@@H](CO)C(=O)N[C@@H](CC(N)=O)C(=O)N[C@H](C(=O)N[C@@H](Cc1ccc(O)cc1)C(N)=O)[C@@H](C)O)C(C)C)[C@@H](C)O | ELISA | Sprague-Dawley rats, serum | subcutaneous, 30 µg/kg | 0.5 h
Cc1cccc(CNC(=O)c2cn(CCNC(=O)c3ccccc3S)c3cc4c(cc3c2=O)OC(F)(F)O4)n1 | – | Sprague-Dawley rat, male, plasma | intravenous, 20 mg/kg of parent drug | 0.083 h
CC(C)c1nc(N(C)S(C)(=O)=O)nc(-c2ccc(F)cc2)c1/C=C/[C@@H](O)C[C@@H](O)CC(=O)O | – | Wistar albino rat, both sexes, plasma | oral, 20 mg/kg | 2.5 h and 3 h and 5.5 h and 1 h
C=CC(=O)N1CCC(Oc2cc3c(Nc4ccc(Cl)c(Cl)c4F)ncnc3cc2OC)CC1 | – | Sprague-Dawley rat, male, plasma | oral, 2 mg/kg, together with: vehicle pretreatment | 0.67 ± 0.26 h
CCc1c(-c2ccccc2)c(-c2ccccc2)nn1-c1ccccc1-c1cccc(OCC(=O)O)c1 | – | Sprague-Dawley rat | intravenous, dose not given | 0.083 h
C=CC(=O)N1CCC[C@@H](n2nc(-c3ccc(Oc4ccccc4)cc3)c3c(N)ncnc32)C1 | – | male Wistar rat, spleen | oral, 50 mg/kg | 1 h
O=C(O)C1=CO[C@@H](O[C@@H]2O[C@H](CO)[C@@H](O)[C@H](O)[C@H]2O)[C@@H]2C(CO)=CC[C@H]12 | – | Sprague-Dawley rat, internal jugular vein plasma | oral, 500 mg/kg Eu extract, dosed as Eu extract | 1.33 ± 0.29 h
Cc1cccc(CNC(=O)c2cn(CCNC(=O)c3ccccc3Sc3c([N+](=O)[O-])ncn3C)c3cc4c(cc3c2=O)OC(F)(F)O4)n1 | – | Sprague-Dawley rat, male, whole blood | intramuscular, 30 mg/kg of parent drug | 0.19 ± 0.06 h
O=C1c2ccncc2C(=O)c2c1[nH]c1ccccc21 | – | Sprague-Dawley rat, male, plasma | intravenous, 1 mg/kg | 0.08 h
CCc1cc(C(=O)NC)c2nccc(N3CCc4c(cc(Cn5ccnc5)cc4-c4cn(C)nc4C(F)(F)F)C3=O)c2c1 | – | Sprague Dawley rat, male, bile duct-cannulated, plasma | oral, 50 mg/kg | 2.3 h
COC(=O)C1=CO[C@@H](O[C@@H]2O[C@H](CO)[C@@H](O)[C@H](O)[C@H]2O)[C@@H]2C(CO)=CC[C@H]12 | – | rat, plasma | oral, 500 mg/kg Eu extract, dosed as Eu extract | 0.5 h
NS(=O)(=O)c1ccc(-n2nc(C(F)(F)F)cc2-c2ccc(C(=O)O)cc2)cc1 | – | Sprague-Dawley rat, whole blood | oral, 20 mg/kg of celecoxib | 21.3 h
Cc1cc(-c2ccc3cc[nH]c(=O)c3c2)ccc1O[C@H]1O[C@H](CO)[C@@H](O)[C@H](O)[C@@H]1O | – | male Sprague-Dawley rat, plasma | oral, 10 mg/kg, group mean | 0.333 h
N=C(N)NCCNC(=O)C1(Nc2ccccc2)CCN(Cc2ccccc2)CC1 | – | female Sprague-Dawley rats, plasma | oral gavage, 50 mg/kg, first sampling point | 0.0833 h
C1=C/COCc2cc(ccc2OCCN2CCCC2)Nc2nccc(n2)-c2cccc(c2)COC/1 | LC-MS/MS | Sprague-Dawley rat, male, plasma | oral, 36 mg/kg, together with: voriconazole 30 mg/kg oral | 7 ± 2.76 h
CSc1ccccc1C(=O)NCCn1cc(C(=O)NCc2cccc(C)n2)c(=O)c2cc3c(cc21)OC(F)(F)O3 | – | Sprague-Dawley rat, male, plasma | intramuscular, 10 mg/kg of parent drug | 1.03 ± 0.55 h
CCOc1c([C@H](C)n2nc(C)c3c(N)ncnc32)cc(Cl)c(F)c1[C@@H]1CNC(=O)C1 | – | Sprague-Dawley rat, plasma | oral gavage, 2.0 mg/kg | ~2 h
CN1CCC[C@H](CN2c3ccccc3Sc3ccccc32)C1.Cl | – | Wistar rat female, eye | oral, 16 mg/kg | 6 h
CC(=O)CC(c1ccccc1)c1c(O)c2ccccc2oc1=O (stereo not shown) | – | Sprague-Dawley rat, male, plasma | oral, 0.3 mg/kg/day, 1 week, without PNS | 2.2 ± 0.37 h
CNC(=O)c1cccc(-c2ccc([C@@H](O)[C@H]3O[C@H](CO)[C@@H](O)[C@H](O)[C@@H]3O)c(C)c2)c1 | – | Sprague-Dawley rat, male, plasma | oral, 10 mg/kg | 0.5 h
OCC1=C[C@@H](O)[C@@H]2C=CO[C@@H](O[C@@H]3O[C@H](CO)[C@@H](O)[C@H](O)[C@H]3O)[C@H]12 | – | Sprague-Dawley rat, internal jugular vein plasma | oral, 500 mg/kg Eu extract, dosed as Eu extract | 0.42 ± 0.14 h
CNC(=O)c1cccc(-c2ccc(O[C@H]3O[C@H](CO)[C@@H](O)[C@H](O)[C@@H]3O)c(C)c2)c1 | – | male Sprague-Dawley rat, plasma | intravenous, 3 mg/kg, group mean | 0.083 h
CCCCCCCOc1ccc(CCC(N)(CO)CO)cc1C(F)(F)F.Cl | LC-MS/MS | Sprague Dawley rat, male, plasma | oral, 1 mg/kg, single | 2 h

For quick reference, copied from above:
Compound | assay | test system | setting | Tmax
O=C(O)C1=CO[C@@H](O[C@@H]2O[C@H](CO)[C@@H](O)[C@H](O)[C@H]2O)[C@@H]2C(CO)=CC[C@H]12 | – | Sprague-Dawley rat, internal jugular vein plasma | oral, 500 mg/kg Eu extract, dosed as Eu extract | 1.33 ± 0.29 h
Cc1cccc(CNC(=O)c2cn(CCNC(=O)c3ccccc3Sc3c([N+](=O)[O-])ncn3C)c3cc4c(cc3c2=O)OC(F)(F)O4)n1 | – | Sprague-Dawley rat, male, whole blood | intramuscular, 30 mg/kg of parent drug | 0.19 ± 0.06 h
